Results collected from several papers.
Lines come from different studies, so protocols differ. ± gives the spread as reported.
Technique: steady-state kinetics
B1: enzyme (Streptomyces albidoflavus, UniProt K0J3J2); chain AAGGYVALGDSYSSGVGAGSYDSGSGDCRRTPKAYPALWAAANSPASFDFVACSGAVTSDVLNKQMGPLNSSTSLVSLTIGGNDAGFADVMTTCVLQSEANCIARVNTAKAFVESTLPGRLDSVYSQVRAKAPSANVVVLGYPRFYKLNGTCVAGLTEGERTAINGAADLLNSVISKRAADHGYAYGDIAAAFTGHEICSGDSWLHSVKWTGINDSYHPTAAGQSGGYLPVLNSKA
B2: enzyme L163H/N249W (Thermobifida fusca, UniProt Q47RK4); chain MTDVYILDAVRTPFGRYGGALSGIRPDDLAAHVLRALAERSPGLDPAAVDDVFFGDANGAGEDNRNVARMAALLAGWPTSVPGVTLNRLCGSGMESVIAANRAIAVGDASLAVAGGVESMSRAPWVLPKPAQGFPTGHETLYSTTLGWRMVNPAMPEQWTVSHGESTEQVAATYGISRAEQDAFALRSHERAARAWAEGVFDAEITQIPGAELERDESIRETSAEKLAALKPAFRPDGTITAGNASPLWDGAAALLIGDAAAAERVGREPLARIVSRGVAAVDPDVFGIGPVQAAEIALRRAGIGWDDLSVVELNEAFAAQSLACLKLWPDLDPEIVNPNGGAIAIGHPLGASGARIVGTLAHELHRRGGGWGLAAICIGVGQGLAVVLHR
B3: nitrilase (Rhodococcus rhodochrous, UniProt A4LA85); chain MVEYTNTFKVAAVQAQPVWFDAAKTVDKTVSIIAEAARNGCELVAFPEVFIPGYPYHIWVDSPLAGMAKFAVRYHENSLTMDSPHVQRLLDAARDHNIAVVVGISERDGGSLYMTQLIIDADGQLVARRRKLKPTHVERSVYGEGNGSDISVYDMPFARLGALNCWEHFQTLTKYAMYSMHEQVHVASWPGMSLYQPEVPAFGVDAQLTATRMYALEGQTFVVCTTQVVTPEAHEFFCENEEQRKLIGRGGGFARIIGPDGRDLATPLAEDEEGILYADIDLSAITLAKQAADPVGHYSRPDVLSLNFNQRRTTPVNTPLSTIHATHTFVPQFGALDGVRELNGADEQRALPSTHSDETDRATASI
B4: Lxyl-p1-1 (Lentinula edodes, UniProt G8GLN9); chain YFSGLGLGSERSIFRRDLNSTGDESNSTQWPAPLANGGKSWASAFKKAKSTVAEMTVEELANITSGVIGLCVGVTGAVTRLGIPELCLQDGPIGPRGVHGSSQFPAGLTVAATWDRTLMYARARGMGQEFHDQGVHIALAPVTGGPLGRTPLNGRGWEGTFADPYACGEASYQSVKGLTDAGVATVSKHWIAYEQETSRNLYIEFDGVSQADIQLPISSNVDDLTMHELYMWSFAEAVRAGTNHIMCSYNRINNTHSCNNAKGLNQLLKTELNFQGGVVSDWGGQWDSVLSAENGLDVGMPGEGFLGELGDFWGTTLADLINNGTVSEDLVRDKVVRLLTGYYYLGQDINPPPPFVYNTIGAPTLNATSGYRNVRKPGTAELIKEIGSASVTLLKNTGSLPLKHPQRIAVLGNDATYNVLGPNACGLANSACDIDNLNGTLTTGGGSGSALSPYTITPLEALQKRAIEDNAEIAAVVANSNTTTGAEDAIAALLPDADVTFVFLNRYSEEGADAPDFSLGGDGDNLMDLAVTYSSNVVVVIHTTGVVDIEKWADNPNVTAILVAYLPGQEAGNSLVPVLYGDVAPSGKLPWTWGKSIDDYVPNGVVYTDAYSPQSNFTEGVFIDYRWFDKMGITPRYEFGFGLSYTTFTYSNLIVDHGRWAKDYSSVMETAEPFAEWDGTNSLYDVIFTVFATITNTGNLTGSEVAQLYISIPGDNQPVRQLRGFDKIKDLPVGDSAVVTFPIRRKDVSSWSVVDQLWYVPNGDFLISVGGSSRDLPLNTTWTP
B5: enzyme (Thermotoga maritima, UniProt Q9WZV7); chain VENVTESKELERLKRIDRMKTEFIANISHELRTPLTAIKAYAETIYNSLGELDLSTLKEFLEVIIDQSNHLENLLNELLDFSRLERKSLQINREKVDLCDLVESAVNAIKEFASSHNVNVLFESNVPCPVEAYIDPTRIRQVLLNLLNNGVKYSKKDAPDKYVKVILDEKDGGVLIIVEDNGIGIPDHAKDRIFEQFYRVDSSLTYEVPGTGLGLAITKEIVELHGGRIWVESEVGKGSRFFVWIPKDRAGEDNRQDN
B6: enzyme D236N (Acetivibrio thermocellus, UniProt A3DJ38); chain MKLTIPELSLVVLIGSSGSGKSTFAKKHFKPTEVISSDFCRGLVSDDENDQTVTGAAFDVLHYIVSKRLQLGKLTVVDATNVQESARKPLIEIAKDYHCFPVAVVFNLPEKVCQERNKNRTDRQVEEYVIRKHTQQLKKSIKGLQREGFRYVYILNSPEEVEEVVFERQPLWNNKKDEHGPFDIIGDIHGCYDELKMLLEKLGYLIEEVEGGVGSGKYRVTHPEGRKVLFLGDLVNRGPKITEVLKLVMGMVKSGIALCVPGNHDVKLLRKLNGRDVQITHGLDRTLEQLAKEPQEFIEEVKAFIDGLVSHYVLDDGKLVVAHAGMKEEFQGRGSGKVREFALYGETTGETDEYGLPVRYDWASDYRGKALVVYGHTPQAEVLKVNNTINIDTGCVFGGKLTAYRYPEREIVDVKALKTYYEPAKPFLPKEDMAERFEARTDNDILDINDVLGKKIITTRLMSSITIHEENSIAALEVMSRFAADPHWLIYLPPTMSPCETSKKEGMLEHPIEAFEYFRTRGVGKVVCEQKHMGSRAVVIVCKDSQVAEKRFGVLDGTAGICYTRTGRHFFDDMQLEAELIDRVRKVLDKSGFWGDFNTDWVCLDCELMPWSAKAQKLLEEQYSAVGISGRVVLDEAVKLLKQASLNKTVSFDVSRQTSGKNADINELLQRFTERSEMMQKYVEAYRKYCWPVNSIDDLKLAPFHILATEGKVHSDKNHIWHMDTIAKYCTQDDSLIMATNHILVDVTDAESVDKGIKWWEDLTASGGEGMVVKPYDFIVKNGRELLQPAVKCRGREYLRIIYGPEYTMDENIERLRNRAVGKKRSLALREFSLGMEALERFVRNEPLYRVHECVFGVLALESEPVDPRL
UniProt G3XD23, sequence (whole entry, looked up): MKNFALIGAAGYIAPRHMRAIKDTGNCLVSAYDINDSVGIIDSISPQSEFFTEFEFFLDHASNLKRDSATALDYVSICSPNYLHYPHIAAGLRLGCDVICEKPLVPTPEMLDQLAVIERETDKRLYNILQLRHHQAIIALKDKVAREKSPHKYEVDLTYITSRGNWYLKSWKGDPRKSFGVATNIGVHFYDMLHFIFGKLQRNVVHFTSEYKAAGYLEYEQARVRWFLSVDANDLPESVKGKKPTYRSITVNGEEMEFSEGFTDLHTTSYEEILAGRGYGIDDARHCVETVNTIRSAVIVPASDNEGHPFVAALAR
UniProt P33378, sequence (whole entry, looked up): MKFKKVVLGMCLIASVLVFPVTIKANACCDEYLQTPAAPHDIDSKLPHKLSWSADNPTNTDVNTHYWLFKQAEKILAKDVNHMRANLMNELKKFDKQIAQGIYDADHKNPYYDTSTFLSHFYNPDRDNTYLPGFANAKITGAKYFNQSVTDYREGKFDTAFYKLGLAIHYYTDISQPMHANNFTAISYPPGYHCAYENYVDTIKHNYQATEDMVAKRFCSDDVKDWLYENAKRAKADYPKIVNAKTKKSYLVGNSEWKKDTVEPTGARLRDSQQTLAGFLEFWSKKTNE

Molecule | substrate | pH | temperature | notes | together with | kcat [s⁻¹]
B1 (enzyme) | CCCCCCCC/C=C\CCCCCCCC(=O)O[C@H](COC(=O)CCCCCCCCCCCCCCC)COP(=O)(O)O | pH 7.2 | 50 °C | apparent |  | 630
B2 (enzyme L163H/N249W) | CC(=O)SCCNC(=O)CCNC(=O)[C@H](O)C(C)(C)COP(=O)(O)OP(=O)(O)OC[C@H]1O[C@@H](n2cnc3c(N)ncnc32)[C@H](O)[C@@H]1OP(=O)(O)O | pH 7.4 | 37 °C |  |  | 0.00367 ± 0.0006
dmhA (Campylobacter jejuni, UniProt Q5M6Q7) | Nc1nc2c(ncn2[C@@H]2O[C@H](COP(=O)(O)OP(=O)(O)O[C@H]3O[C@H]([C@H](O)CO)[C@@H](O)[C@H](O)[C@@H]3O)[C@@H](O)[C@H]2O)c(=O)[nH]1 | pH 7.5 | 30 °C |  |  | 1.64 ± 0.04
wbpB (Pseudomonas aeruginosa, UniProt G3XD23) | O=C(O)CCC(=O)C(=O)O | pH 8.5 | 25 °C |  |  | 5550 ± 70
ATIC (Cryptococcus neoformans, UniProt J9VJP1) | NC(=O)c1ncn([C@@H]2O[C@H](COP(=O)(O)O)[C@@H](O)[C@H]2O)c1N | pH 7.5 | 37 °C | KCl 25 mM, apparent | N10-formyl-tetrahydrofolate 0.1 mM | 7.5 ± 0.1
B3 (nitrilase) | Cc1cccc(C#N)c1 | pH 7.5 | 25 °C |  |  | 0.000238 ± 2e-05
plcB (Listeria monocytogenes, UniProt P33378) | CCCC(=O)OC[C@H](COP(=O)([O-])OCC[N+](C)(C)C)OC(=O)CCC | pH 6 | 37 °C |  |  | 8 ± 0.4
B4 (Lxyl-p1-1) | [H][C@]12[C@H](OC(=O)c3ccccc3)[C@]3(O)C[C@H](OC(=O)[C@H](O)[C@@H](NC(=O)c4ccccc4)c4ccccc4)C(C)=C([C@@H](O)C(=O)[C@]1(C)[C@@H](O[C@@H]1OC[C@@H](O)[C@H](O)[C@H]1O)C[C@@]1([H])OC[C@@]21OC(C)=O)C3(C)C |  |  |  |  | 2.13 ± 0.05
B5 (enzyme) | C#CCSP(=O)(O)OP(=O)(O)OP(=O)(O)OC[C@H]1O[C@@H](n2cnc3c(N)ncnc32)[C@H](O)[C@@H]1O |  |  | apparent |  | 2.1 ± 0.6
B6 (enzyme D236N) | Nc1ncnc2c1ncn2[C@@H]1O[C@H](CO)[C@H]2OP(=O)(O)O[C@H]21 | pH 7.5 | 45 °C |  |  | 5.77 ± 0.233

A few entries again:
Molecule | substrate | pH | temperature | notes | together with | kcat [s⁻¹]
wbpB (Pseudomonas aeruginosa, UniProt G3XD23) | O=C(O)CCC(=O)C(=O)O | pH 8.5 | 25 °C |  |  | 5550 ± 70
